Assay results pooled from the literature.
Compare with care: the assays were run in different laboratories. Values joined by “and” are separate records of one study, mostly repeats; a detail may differ. Numbers after ± are the reported error.
Target: Cytochrome P450 2C19 (CYP2C19, Homo sapiens, UniProt P33261)
Sequence of UniProt P33261 (whole entry, looked up): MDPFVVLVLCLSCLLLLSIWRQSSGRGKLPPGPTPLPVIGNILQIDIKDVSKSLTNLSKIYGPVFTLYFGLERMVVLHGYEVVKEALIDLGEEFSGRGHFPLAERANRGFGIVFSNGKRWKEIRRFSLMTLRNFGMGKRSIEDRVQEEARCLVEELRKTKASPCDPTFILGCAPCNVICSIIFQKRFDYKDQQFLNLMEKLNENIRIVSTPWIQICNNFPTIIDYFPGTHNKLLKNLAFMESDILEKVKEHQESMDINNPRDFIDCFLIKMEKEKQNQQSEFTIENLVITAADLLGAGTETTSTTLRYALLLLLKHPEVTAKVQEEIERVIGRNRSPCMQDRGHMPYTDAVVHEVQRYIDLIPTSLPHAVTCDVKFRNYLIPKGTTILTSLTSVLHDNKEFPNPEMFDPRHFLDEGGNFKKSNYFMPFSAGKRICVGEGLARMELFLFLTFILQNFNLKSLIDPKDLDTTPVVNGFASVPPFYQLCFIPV

CCOc1cc(-c2nncn2C)ccc1Nc1ncc2cc(C)nc(NCC(C)(C)C)c2n1
IC50 (enzyme activity, inhibitor): 10 to 50 µM

COc1cc(O)c(CC=C(C)C)c2c1C(=O)CC(c1ccc(O)cc1)O2 (stereo not shown)
IC50 (inhibitor; human liver microsomes; pH 7.4, added: (S)-mephenytoin): 0.5 ± 0.1 µM

Cc1nc(-c2cnc(NC(C)C)n(C)c2=O)ccc1Oc1ccnc(-c2cnn(C)c2)c1
IC50 (time-dependent inhibition, inhibitor; 30 min preincubation without NADPH): > 100 µM

CC(C)=CCc1c(O)cc(O)c2c1O[C@H](c1ccc(O)cc1)CC2=O
IC50 (inhibitor; pH 7.4): 0.4 ± 0.1 µM

Cc1noc(C)c1-c1ccc2nc(-c3cnn(CC(C)(C)O)c3)nc(N3CCOC[C@@H]3c3ccccc3)c2c1
IC50: 4.9 µM

NC/C(=C\F)COc1cccc(Cn2c(=S)[nH]c(=O)c3[nH]cnc32)c1
IC50 (enzyme activity, inhibitor; CYP2C19 screen): > 10 µM

CCOC(=O)[C@@]12C[C@@H]1[C@@H](n1ccc3c(NC)nc(C#Cc4ccc(Cl)s4)nc31)[C@H](O)[C@@H]2O
IC50 (enzyme activity, inhibitor; human liver microsomes; 10 min, pH 7.4, added: mephenytoin substrate): 13.9 µM

COc1ccc(Cc2nc(NC(=O)C34CC5CC(CC(C5)C3)C4)n(C)c2Cc2ccc(OC)c(OC)c2)cc1
IC50: 3.35 ± 0.54 µM

O=C(NCCN1CCCC1)c1cc(-c2ccc(CN3CCOCC3)cc2)nc2ccc(F)cc12
IC50 (inhibitor; pooled human liver microsomes; added: S-mephenytoin): > 100 µM

N#Cc1ccc([C@H]2CCc3cncn32)c(F)c1
IC50 (inhibitor, measured: 4'-hydroxylation; pooled human liver microsomes; added: S-mephenytoin 15 µM): < 10 µM and 4 µM
